# Measured values gathered from unrelated publications.
# Lines come from different studies, so protocols differ.
# Organism: Mycobacterium tuberculosis variant bovis BCG
# Read-out: microbial growth
Compound,strain,time,endpoint,value
O=C(O)c1cncc(Cl)n1,ATCC35734 BCG,5 days,IC50,1000 µM
CCCCCCn1c2c([n+](CCCCCC)c1C)C(=O)c1ccccc1C2=O,BCG,5 days,MIC90,≤ 0.3 µM
CCCCCCCCn1cc(CN2CCC3(CC2)SCCS3)c2ccc(OC)cc21,BCG,,MIC50,0.29 µM
CCCOC(=O)C1=C(C)CS[C@@H]2[C@H](NC(=O)COc3ccccc3)C(=O)N12,BCG,,MIC90,> 100 µg/mL
CCCCCCCCn1c2c([n+](CCCC)c1C)C(=O)c1ccccc1C2=O,BCG,5 days,MIC90,≤ 0.3 µM
O=C(O)c1nccnc1NC1CCCC1,ATCC35734 BCG,5 days,IC50,400 µM
CCCCCCCCn1cc(CN2CCC3(CC2)OCCS3)c2ccc(OC)cc21,BCG,,MIC50,0.36 µM
O=C(O)c1ccccc1,ATCC35734 BCG,5 days,IC50,2200 µM
CCCCCC[n+]1c2c(n(CC(C)C)c1C)C(=O)c1ccccc1C2=O,BCG,5 days,MIC90,≤ 0.3 µM
CCCCCCCCn1cc(CN2CCC3(CC2)SCCCS3)c2ccc(OC)cc21,BCG,,MIC50,0.28 µM
O=C1C=CC(=O)c2ccccc21,BCG,5 days,MIC90,50 µM
CC(C)CNc1cnc(C(=O)O)cn1,ATCC35734 BCG,5 days,IC50,400 µM
Cc1ccc(-c2nc3ccc(C)cn3c2CC(=O)N(C)C)cc1,BCG,6 days,MIC,49 µM
